Measurements pooled from the literature.
A part holds a random share of what one study measured. Values joined by “and” are separate records of one study, mostly repeats; a detail may differ.
Chain of UniProt P42336 (whole entry, unmodified, looked up): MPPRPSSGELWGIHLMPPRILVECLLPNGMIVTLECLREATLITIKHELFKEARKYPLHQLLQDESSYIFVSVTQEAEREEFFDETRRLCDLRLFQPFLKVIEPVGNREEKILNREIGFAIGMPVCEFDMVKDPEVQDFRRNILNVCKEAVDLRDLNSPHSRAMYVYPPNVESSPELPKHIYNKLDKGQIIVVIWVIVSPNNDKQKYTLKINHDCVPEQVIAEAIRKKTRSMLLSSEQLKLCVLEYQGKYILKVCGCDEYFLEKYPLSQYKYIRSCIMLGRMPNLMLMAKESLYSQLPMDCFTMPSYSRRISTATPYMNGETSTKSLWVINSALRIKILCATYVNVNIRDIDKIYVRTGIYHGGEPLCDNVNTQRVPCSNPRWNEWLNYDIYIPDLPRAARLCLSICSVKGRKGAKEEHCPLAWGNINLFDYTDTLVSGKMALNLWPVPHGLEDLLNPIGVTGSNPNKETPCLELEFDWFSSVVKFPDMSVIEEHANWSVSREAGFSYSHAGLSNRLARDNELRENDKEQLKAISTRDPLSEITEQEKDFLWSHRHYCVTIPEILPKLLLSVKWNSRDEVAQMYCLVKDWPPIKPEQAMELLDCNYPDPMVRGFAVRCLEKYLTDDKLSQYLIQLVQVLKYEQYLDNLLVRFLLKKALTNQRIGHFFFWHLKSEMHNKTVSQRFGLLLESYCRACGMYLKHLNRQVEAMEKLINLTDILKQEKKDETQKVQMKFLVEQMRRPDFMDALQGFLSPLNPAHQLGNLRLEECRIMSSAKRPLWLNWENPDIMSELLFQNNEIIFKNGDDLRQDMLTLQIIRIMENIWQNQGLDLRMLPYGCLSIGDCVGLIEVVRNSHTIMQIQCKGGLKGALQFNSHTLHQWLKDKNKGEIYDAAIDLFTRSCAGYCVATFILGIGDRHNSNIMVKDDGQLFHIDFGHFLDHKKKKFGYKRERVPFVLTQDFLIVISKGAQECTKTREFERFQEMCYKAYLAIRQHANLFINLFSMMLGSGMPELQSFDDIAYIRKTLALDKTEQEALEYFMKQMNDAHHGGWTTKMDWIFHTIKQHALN
Chain of UniProt Q13422 (whole entry, looked up): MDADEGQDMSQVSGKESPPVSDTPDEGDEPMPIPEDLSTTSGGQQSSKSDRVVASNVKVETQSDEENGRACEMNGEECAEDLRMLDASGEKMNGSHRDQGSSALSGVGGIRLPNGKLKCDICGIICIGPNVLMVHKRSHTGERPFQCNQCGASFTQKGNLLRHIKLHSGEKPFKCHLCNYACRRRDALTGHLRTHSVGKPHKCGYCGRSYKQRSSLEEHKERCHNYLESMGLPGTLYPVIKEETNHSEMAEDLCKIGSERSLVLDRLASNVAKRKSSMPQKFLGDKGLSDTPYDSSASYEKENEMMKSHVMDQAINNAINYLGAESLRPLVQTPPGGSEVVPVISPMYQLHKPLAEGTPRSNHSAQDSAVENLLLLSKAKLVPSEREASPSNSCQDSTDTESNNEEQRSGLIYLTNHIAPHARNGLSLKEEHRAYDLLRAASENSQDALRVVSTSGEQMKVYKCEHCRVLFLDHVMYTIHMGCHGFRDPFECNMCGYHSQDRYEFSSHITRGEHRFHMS

Study 1 — observed: enzyme activity; mode: inhibitor; tested at: 0.5 µM; reference: control
Target: MAP/microtubule affinity-regulating kinase 3 (MARK3, Homo sapiens, UniProt P27448)
Chain of UniProt P27448 (whole entry, looked up): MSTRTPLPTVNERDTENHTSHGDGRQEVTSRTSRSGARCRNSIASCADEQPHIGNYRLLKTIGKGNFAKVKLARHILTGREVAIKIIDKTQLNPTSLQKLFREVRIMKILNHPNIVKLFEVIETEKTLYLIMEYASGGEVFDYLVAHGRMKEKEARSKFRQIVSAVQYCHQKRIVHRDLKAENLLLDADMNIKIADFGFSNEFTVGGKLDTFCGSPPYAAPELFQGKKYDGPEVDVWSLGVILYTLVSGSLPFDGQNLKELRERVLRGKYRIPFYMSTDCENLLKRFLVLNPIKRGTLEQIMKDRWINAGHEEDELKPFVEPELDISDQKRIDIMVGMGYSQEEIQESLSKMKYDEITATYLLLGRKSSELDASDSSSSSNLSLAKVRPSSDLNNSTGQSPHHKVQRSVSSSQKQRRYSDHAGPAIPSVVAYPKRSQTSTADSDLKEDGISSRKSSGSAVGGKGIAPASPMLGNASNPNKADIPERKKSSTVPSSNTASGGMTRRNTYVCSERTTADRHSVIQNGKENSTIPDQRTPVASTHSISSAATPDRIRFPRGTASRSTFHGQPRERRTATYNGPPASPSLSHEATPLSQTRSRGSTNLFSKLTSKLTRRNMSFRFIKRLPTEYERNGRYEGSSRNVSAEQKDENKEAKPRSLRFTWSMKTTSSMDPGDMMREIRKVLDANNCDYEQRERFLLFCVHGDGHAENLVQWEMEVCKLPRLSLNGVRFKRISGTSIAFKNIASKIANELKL
Compound	remaining activity [%]
Cc1ccc(Nc2nccc(N(C)c3ccc4c(C)n(C)nc4c3)n2)cc1S(N)(=O)=O	96.6
COc1cc2nccc(Oc3ccc(NC(=S)NC(=O)c4ccccc4C)cc3)c2cc1OC	79.2
N#CC(C#N)=C(N)/C(C#N)=C/c1ccc(O)cc1	96.5
O=C(Nc1cccc(Nc2cc(Nc3cccc(C(F)(F)F)c3)ncn2)c1)C1CC1	105
COc1ccc(OC)c2c(=S)c3ccccc3[nH]c12	96.7
COc1cc2ncnc(Nc3ccc(Oc4ccccc4)cc3)c2cc1OC	108
Cc1cccc(-c2[nH]c(C(C)(C)C)nc2-c2ccc3c(c2)OCO3)n1	73.9
Cc1nc(-c2ccccc2)c(-c2ccncc2)o1	107
NCCNc1ncc(C(N)=O)c(Nc2cccc(C(F)(F)F)c2)n1	86.7
Nc1ccc2ncnc(NCCc3ccc(Oc4ccccc4)cc3)c2c1	86.4
Cn1c2ccccc2c2c3c(c4c5ccccc5n(CCC#N)c4c21)CNC3=O	13.9
CCOC(=O)c1c(C)[nH]c(/C=C2\C(=O)Nc3ccccc32)c1C	99.8
C#Cc1cccc(Nc2ncnc3cc(OCCOC)c(OCCOC)cc23)c1	96.4
Nc1ncnc2n[nH]c(Nc3ccc(F)cc3)c12	92.5
CN(C)c1ccc(C=C2C(=O)Nc3ccccc32)cc1	101

Study 2 — mode: degrader
SMILES: O=C1CCC(N2Cc3cc(C4CCN(Cc5ccccc5)CC4)ccc3C2=O)C(=O)N1 (centres unmarked)
target	method	cells	tested at	time	remaining protein
Zinc finger protein Eos (IKZF4, Homo sapiens, UniProt Q9H2S9)	HiBiT	HEK293	0.03704 µM	6 h	118%
Sal-like protein 4 (SALL4, Homo sapiens, UniProt Q9UJQ4)	HiBiT	HEK293	0.0005081 µM		77.9% and 79.5%
CRBN/Zinc finger protein Helios (Homo sapiens, UniProt Q96SW2+Q9UKS7)	flow cytometry	primary human regulatory T cells	0.001372 µM	3 h	104%
CSNK1A1 (Homo sapiens, UniProt P48729)	HiBiT	HEK293	0.1235 µM	6 h	91.6%
GSPT1 (Homo sapiens, UniProt P15170)	HiBiT	HEK293	10 µM	6 h	109%
DNA-binding protein Ikaros (Homo sapiens, UniProt Q13422)	HiBiT	HEK293	0.04115 µM		88.8% and 109%

Study 3 — SMILES: CCC(=N\O)/C(C)=C/c1ccc(F)cc1; tested at: 1 µM
target	observed	method	setting	reference	remaining binding
PIK3CG (Homo sapiens, UniProt P48736)	cell-free assay	competition with immobilised ligand			100%
ABL1 (Homo sapiens, UniProt P00519, F317I)		KINOMEscan	F317I mutant, nonphosphorylated	control	100%
SIK3 (Homo sapiens, UniProt Q9Y2K2)	cell-free assay	competition with immobilised ligand			68%
PIK3CA (Homo sapiens, UniProt P42336)	cell-free assay	competition with immobilised ligand			100%
COQ8B (Homo sapiens, UniProt Q96D53)	cell-free assay	competition with immobilised ligand			84%
PIK3CA (Homo sapiens, UniProt P42336, C420R)	cell-free assay	competition with immobilised ligand			79%

Study 4 — observed: enzyme activity; mode: inhibitor; tested at: 77 µM; reference: untreated
Target: DNA polymerase theta, ATPase domain (POLQ, Homo sapiens, UniProt O75417)
Chain of UniProt O75417 (whole entry, unmodified, looked up): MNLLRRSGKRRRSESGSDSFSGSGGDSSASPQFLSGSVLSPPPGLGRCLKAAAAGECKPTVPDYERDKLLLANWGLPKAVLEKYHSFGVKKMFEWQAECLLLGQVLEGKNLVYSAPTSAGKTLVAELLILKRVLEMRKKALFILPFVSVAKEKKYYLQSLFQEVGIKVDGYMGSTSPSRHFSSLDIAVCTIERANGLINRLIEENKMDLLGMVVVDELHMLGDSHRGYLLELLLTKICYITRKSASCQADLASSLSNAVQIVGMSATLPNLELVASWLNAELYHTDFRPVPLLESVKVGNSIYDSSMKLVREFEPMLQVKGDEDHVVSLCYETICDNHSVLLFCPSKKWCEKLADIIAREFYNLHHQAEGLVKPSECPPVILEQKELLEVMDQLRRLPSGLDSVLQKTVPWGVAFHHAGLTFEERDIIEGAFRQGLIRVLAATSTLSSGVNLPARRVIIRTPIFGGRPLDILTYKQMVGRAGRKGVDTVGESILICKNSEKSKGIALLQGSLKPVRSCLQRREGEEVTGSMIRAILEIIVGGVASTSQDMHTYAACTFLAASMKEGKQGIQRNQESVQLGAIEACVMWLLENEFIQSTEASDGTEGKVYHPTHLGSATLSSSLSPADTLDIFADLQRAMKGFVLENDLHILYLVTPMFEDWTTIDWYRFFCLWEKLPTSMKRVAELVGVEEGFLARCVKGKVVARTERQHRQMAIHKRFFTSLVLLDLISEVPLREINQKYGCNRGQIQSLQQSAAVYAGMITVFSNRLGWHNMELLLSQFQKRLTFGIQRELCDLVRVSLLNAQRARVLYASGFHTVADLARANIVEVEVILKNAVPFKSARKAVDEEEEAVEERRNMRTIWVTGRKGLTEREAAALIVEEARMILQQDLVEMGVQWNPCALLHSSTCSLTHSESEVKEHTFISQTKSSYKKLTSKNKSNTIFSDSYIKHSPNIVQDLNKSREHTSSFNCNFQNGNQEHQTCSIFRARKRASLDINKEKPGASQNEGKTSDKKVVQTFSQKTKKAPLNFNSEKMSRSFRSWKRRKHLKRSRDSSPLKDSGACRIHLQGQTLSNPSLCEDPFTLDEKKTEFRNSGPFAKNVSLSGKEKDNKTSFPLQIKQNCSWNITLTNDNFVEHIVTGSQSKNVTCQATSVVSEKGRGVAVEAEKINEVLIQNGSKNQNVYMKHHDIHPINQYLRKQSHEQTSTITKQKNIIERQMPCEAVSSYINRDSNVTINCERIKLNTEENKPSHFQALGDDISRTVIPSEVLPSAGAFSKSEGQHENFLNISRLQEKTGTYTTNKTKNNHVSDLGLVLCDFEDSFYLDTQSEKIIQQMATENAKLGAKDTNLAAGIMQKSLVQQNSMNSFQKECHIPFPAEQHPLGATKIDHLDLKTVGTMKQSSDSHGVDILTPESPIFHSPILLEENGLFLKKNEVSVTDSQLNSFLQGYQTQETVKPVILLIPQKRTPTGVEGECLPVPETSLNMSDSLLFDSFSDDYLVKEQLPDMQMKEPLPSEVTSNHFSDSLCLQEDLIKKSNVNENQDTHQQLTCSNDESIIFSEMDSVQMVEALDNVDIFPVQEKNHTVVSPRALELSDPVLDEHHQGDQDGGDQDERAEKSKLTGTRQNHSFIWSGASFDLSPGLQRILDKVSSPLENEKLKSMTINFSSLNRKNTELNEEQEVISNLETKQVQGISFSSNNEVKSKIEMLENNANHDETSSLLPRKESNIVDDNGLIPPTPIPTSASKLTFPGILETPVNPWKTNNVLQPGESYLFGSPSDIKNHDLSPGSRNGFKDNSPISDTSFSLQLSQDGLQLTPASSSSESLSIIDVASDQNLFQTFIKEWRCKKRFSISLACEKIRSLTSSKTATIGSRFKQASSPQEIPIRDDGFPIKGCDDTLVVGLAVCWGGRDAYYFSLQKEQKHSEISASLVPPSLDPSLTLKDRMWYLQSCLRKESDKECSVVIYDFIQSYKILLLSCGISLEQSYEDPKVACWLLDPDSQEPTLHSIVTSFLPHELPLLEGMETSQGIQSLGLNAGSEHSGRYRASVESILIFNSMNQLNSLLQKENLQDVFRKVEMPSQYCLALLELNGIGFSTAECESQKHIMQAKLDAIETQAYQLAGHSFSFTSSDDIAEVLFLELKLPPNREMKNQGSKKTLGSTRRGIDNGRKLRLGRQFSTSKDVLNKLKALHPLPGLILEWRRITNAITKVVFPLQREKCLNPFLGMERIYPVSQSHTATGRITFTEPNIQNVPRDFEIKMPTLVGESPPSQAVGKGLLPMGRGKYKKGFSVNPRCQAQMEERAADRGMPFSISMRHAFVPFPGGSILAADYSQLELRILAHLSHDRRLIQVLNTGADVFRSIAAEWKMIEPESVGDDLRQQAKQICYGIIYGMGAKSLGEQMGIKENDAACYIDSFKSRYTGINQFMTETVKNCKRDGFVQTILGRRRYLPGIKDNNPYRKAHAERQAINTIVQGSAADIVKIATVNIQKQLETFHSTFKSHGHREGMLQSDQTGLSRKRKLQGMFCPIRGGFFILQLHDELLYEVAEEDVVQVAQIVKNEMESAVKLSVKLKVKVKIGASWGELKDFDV
Structure (SMILES)	remaining activity
CN(C)CCOC(c1ccc(Cl)cc1)c1ccccn1 (centres unmarked)	96.7%
O=C(O)C1=CO[C@@H](O[C@@H]2O[C@H](CO)[C@@H](O)[C@H](O)[C@H]2O)[C@@H]2C(CO)=CC[C@H]12	101%
NC(=O)N1CCC(CC(=O)N2CCC([C@H]3c4ncc(Br)cc4CCc4cc(Cl)cc(Br)c43)CC2)CC1	134%
N#C[C@@H]1C[C@@H]2C[C@@H]2N1C(=O)[C@@H](N)C12CC3CC(CC(O)(C3)C1)C2	94.6%
CNC(=O)c1c(I)c(C(=O)NCC(=O)Nc2c(I)c(C(=O)O)c(I)c(C(=O)NCCO)c2I)c(I)c(N(C)C(C)=O)c1I	103%
Cc1nc2sccn2c(=O)c1CCN1CCC(=C(c2ccc(F)cc2)c2ccc(F)cc2)CC1	98%
Cc1nc(Nc2n[nH]c3c2CN(C(=O)N[C@H](CN(C)C)c2ccccc2)C3(C)C)c2sccc2n1	103%
COc1nccc(-c2c(-c3ccc(F)cc3)ncn2C2CCNCC2)n1	112% and 118% and 119%

A few entries again (study 1):
Compound	remaining activity [%]
Nc1ccc2ncnc(NCCc3ccc(Oc4ccccc4)cc3)c2c1	86.4
Cn1c2ccccc2c2c3c(c4c5ccccc5n(CCC#N)c4c21)CNC3=O	13.9
CCOC(=O)c1c(C)[nH]c(/C=C2\C(=O)Nc3ccccc32)c1C	99.8
C#Cc1cccc(Nc2ncnc3cc(OCCOC)c(OCCOC)cc23)c1	96.4
Nc1ncnc2n[nH]c(Nc3ccc(F)cc3)c12	92.5
